Measured values gathered from unrelated publications.
Parts stem from different laboratories: compare values within a part only. Substitutions count along the parent as printed.

Series 1
Target: Interferon regulatory factor 7, full length, phosphomimetic (IRF7, Homo sapiens, UniProt Q92985, residues 1-503, S471D/S472D/S475D/S476D/S477D/S483D/S484D/S487D)
Technique: protein-binding microarray
Molecule type: double-stranded DNA, one strand shown
Matrix: in vitro
Concentration: 2200 nM top
Notes: 60-bp whole probe
Added: salmon DNA 0.4 mg/ml
Baseline: random background probes
Direction: higher = stronger binding
Endpoint: fitted relative affinity
Constant ends, left off below: GCCTAGCAC … GTCTTGATTCGCTTGACGCTGCTG
Construct (chain): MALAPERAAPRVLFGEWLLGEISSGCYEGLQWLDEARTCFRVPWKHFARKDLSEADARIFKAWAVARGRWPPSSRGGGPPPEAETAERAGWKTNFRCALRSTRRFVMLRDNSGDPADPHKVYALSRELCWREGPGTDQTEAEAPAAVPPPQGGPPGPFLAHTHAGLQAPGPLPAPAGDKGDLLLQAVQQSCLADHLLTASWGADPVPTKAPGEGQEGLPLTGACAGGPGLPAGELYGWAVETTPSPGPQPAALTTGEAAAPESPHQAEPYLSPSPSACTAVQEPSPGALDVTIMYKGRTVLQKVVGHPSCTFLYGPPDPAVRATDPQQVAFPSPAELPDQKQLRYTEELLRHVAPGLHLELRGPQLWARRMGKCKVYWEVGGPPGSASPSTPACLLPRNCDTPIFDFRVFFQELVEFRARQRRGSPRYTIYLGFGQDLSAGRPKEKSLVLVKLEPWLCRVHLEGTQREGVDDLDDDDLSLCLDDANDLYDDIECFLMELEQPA
TTCCAACTCTGTTTTCGCTTGTGCTAG: 3.98 z-score
TTAGGTCTCCTTCTCGTTTAGTGCTAG: 1.26 z-score
TCACAGATGTTTTTCATACTGTGCTAG: 0.842 z-score
TCAGAAATCAGTATGTTACTGTGCTAG: -0.169 z-score
TTAGGTATCGGGTTTCGGTGAGTGCTA: 1.5 z-score
GTAGGTTCCCTTTTCCTTTAGTGCTAG: 3.41 z-score
TGGCCTCTAGGTTTTCTGGAGTGCTAG: -0.516 z-score
TTAGATTTCGGGTTACGATTAGTGCTA: 5.73 z-score
TTAGGTTTCCTTATCTTTTAGTGCTAG: 1.45 z-score

Series 2
Target: RING finger protein unkempt homolog, zinc fingers 1-6, GST-SBP tag (UNK, Homo sapiens, UniProt Q9C0B0, residues 30-357)
Sequence of UniProt Q9C0B0 (30-357, looked up): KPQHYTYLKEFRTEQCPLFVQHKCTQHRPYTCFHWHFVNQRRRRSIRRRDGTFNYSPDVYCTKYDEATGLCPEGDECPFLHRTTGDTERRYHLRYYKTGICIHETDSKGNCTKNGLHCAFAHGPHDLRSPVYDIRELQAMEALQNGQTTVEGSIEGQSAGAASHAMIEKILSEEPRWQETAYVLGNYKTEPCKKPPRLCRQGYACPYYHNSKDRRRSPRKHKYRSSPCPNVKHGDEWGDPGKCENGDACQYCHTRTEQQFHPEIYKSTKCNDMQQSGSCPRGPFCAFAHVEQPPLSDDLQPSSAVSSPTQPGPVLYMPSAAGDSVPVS
Technique: RNA Bind-n-Seq
Molecule type: RNA
Matrix: in vitro
Concentration: not given
Notes: RNA with constant flanks, human-mouse chimeric sites, ends assumed
Baseline: input RNA pool
Direction: higher = stronger binding
Endpoint: bound/input enrichment
Constant ends, left off below: GGGAGUUCUACAGUCCGACGAUC … CAACAGAGGAUUGAGCAUCA
UCUGGUCACACUCGUGUGUAUGGUGUUUGCUUUGUGGACACUUCACUGGGCAAGUUUUUCAUCGGCCAGUUUUCGGAUGACCGCCACUGUUCGAGAUUUAGGACGCUAGUGGCUCACUAU: 0.234 ratio
CAGCUGCGAGGCCGCGGGUGCCCGCCGGGCCUCCCCAGCAGCAGCCAUGGGCAUCAAAUUUUUAGAAGUUAUCAAACCAUUCUGUGCAGUUCUACCAGAAAUUCAGAAACCGGAAAGGAA: 0.892 ratio
CACGUGUCUGCAGUACUUGAUGUGGACUACUCUCCCACUGGGAAGGAAUUUGUGUCUGCUAGUUUCGAUAAGUCUAUUCGAAUCUUUCCUGUGGACAAGAGCCGAAGCAGGGAAGUGUAU: 0.444 ratio
AUAGAUGAAAUUGAUGUGGACCAGGAAGGAAUUGCUGAAAUGAUCCUGGAUGAAAAUGCUAUUGCUCAGGUCCCACGCCCUGGAACGUCUUUGAAGCUCCCUGGCACUAACCAAACAGGA: 0.492 ratio
UAACCACAUCAAGAUGGUUGGGAAGCUGAAGCAGAACUUACUCUUGGCAUGUCUGGUGAUUAGUUCUGUGACCGUGUUUUACCUGGGCCAGCAUGCCAUGGAGUGCCAUCACCGAAUAGA: 0.305 ratio

Series 3
Target: CCND2, cyclin fold, Cln2 fusion (human)
Technique: yeast growth competition, sequencing
Matrix: yeast
Notes: weak parent motif
Baseline: not given
Direction: higher = stronger binding
Endpoint: normalised enrichment score
Starting sequence: CDKN1B docking peptide (human); PSACRNLFGPVDH; partner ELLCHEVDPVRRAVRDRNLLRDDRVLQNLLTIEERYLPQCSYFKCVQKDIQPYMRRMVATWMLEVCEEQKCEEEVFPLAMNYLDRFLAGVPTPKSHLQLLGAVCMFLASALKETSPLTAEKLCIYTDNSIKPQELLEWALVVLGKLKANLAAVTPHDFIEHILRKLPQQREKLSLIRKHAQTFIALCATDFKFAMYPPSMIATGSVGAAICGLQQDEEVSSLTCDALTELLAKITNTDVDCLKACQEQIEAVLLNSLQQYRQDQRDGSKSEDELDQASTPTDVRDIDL
PSACRNLFGWVDH [P10W]: 0.243
PSACRNLWGPVDH [F8W]: 0.0976
PSACPNLFGPVDH [R5P]: -0.0347
PSACRNLFGPRDH [V11R]: -0.0291
PSACRNLFGPVDG [H13G]: 0.13
PSACRELFGPVDH [N6E]: 0.222
TSACRNLFGPVDH [P1T]: 0.46

Mixed results
PhoQ, residues 284 288 289 292 302 303 TYGVAM — fold induction (PhoP, residues 12 14 15 18 19 LHSVQ (Escherichia coli, UniProt P23836); Sort-seq, item: YFP reporter; E. coli; PhoQ-PhoP variant library, added: 10 µM Mg2+; baseline: high Mg2+ state, higher = stronger signaling): 14.7

For quick reference, copied from above (series 1):
TTAGGTATCGGGTTTCGGTGAGTGCTA: 1.5 z-score
GTAGGTTCCCTTTTCCTTTAGTGCTAG: 3.41 z-score
